Assay results gathered from unrelated publications.
Each numbered part is a random draw from the data of one study; scales do not carry over between parts. Positions count from the first letter of the parent shown.
Chain of UniProt O15294 (whole entry, looked up): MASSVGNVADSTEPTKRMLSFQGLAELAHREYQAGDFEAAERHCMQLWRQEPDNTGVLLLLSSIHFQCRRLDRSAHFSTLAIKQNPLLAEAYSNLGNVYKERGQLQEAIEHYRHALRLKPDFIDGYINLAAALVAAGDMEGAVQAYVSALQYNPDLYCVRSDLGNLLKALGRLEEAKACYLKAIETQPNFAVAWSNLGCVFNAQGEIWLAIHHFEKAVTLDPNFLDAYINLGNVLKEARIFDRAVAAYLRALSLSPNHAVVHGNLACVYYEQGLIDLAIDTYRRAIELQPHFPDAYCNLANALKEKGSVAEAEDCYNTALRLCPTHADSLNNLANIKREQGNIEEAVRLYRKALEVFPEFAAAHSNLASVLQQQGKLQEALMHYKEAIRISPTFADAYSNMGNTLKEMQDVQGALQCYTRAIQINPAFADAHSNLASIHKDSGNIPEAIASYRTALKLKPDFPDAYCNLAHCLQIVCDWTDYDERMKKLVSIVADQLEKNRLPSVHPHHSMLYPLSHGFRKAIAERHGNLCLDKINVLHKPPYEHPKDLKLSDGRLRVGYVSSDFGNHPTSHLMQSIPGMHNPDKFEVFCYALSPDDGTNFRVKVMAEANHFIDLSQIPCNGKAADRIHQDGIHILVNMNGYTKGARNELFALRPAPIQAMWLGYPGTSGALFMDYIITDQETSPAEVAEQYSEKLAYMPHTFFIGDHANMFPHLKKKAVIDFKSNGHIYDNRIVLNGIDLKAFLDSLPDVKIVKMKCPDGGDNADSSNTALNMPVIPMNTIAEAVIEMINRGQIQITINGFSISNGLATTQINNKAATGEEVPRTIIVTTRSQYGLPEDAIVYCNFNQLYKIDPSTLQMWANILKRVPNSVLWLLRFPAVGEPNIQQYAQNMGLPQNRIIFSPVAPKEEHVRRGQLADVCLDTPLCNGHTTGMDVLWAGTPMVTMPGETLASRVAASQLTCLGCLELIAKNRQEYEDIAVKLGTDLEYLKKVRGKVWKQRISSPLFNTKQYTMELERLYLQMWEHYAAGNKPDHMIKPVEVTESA

Sample 1
Target: Ras GTPase-activating protein-binding protein 1, full length (G3BP1, Homo sapiens, UniProt Q13283)
Chain of UniProt Q13283 (whole entry, looked up): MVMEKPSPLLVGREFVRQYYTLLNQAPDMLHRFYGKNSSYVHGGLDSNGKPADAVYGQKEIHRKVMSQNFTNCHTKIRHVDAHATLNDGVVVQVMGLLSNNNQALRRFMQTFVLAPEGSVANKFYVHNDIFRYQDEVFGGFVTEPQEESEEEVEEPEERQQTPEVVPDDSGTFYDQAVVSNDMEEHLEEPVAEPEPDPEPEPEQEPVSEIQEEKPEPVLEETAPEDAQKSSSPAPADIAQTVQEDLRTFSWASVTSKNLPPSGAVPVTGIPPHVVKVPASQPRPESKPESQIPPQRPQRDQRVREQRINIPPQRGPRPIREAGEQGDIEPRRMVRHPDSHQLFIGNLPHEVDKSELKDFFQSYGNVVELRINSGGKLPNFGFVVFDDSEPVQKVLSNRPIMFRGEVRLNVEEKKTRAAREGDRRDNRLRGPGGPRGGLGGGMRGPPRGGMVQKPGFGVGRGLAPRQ
Method: RNA Bind-n-Seq
Molecule type: RNA
Medium: in vitro
Tested at: 200 nM
Setting: whole 134-nt RNA, ends assumed
Together with: 150 mM LiCl
Baseline: input library
Reading: higher = stronger binding
Library: 7-deaza-guanosine replaces G
Strand	log2 enrichment
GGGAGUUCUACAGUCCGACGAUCGUCCUGUGCUACACAUCGUAUGUACCGAAUCGGGUUUUUGGGUUUUUGGGGUUUUUGGGAAAGUAUUAUGUUACGCCGUUCGGAUCUGCAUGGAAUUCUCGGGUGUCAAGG	-0.256
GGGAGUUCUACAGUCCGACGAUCUCACUUUAGAGGAGGAUCUGAUGGAUAUGGCAGUGGACGUGGAUUUGGGGAUGGCUAUAAUGGGUAUGGAGGAGGACCUGGAGGUGGCAAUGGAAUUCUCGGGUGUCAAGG	0.0685
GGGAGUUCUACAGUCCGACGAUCAAGUCCUGUGCUACACAUCGUAUGUACCGAAUCAAACCCAAACCCAAAUUUUUAAAAAAGUAUUAUGUUACGCCGUUCGGAUCUGCACUUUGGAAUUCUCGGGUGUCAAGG	1.02
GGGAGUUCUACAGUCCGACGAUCCACAGACAACACGCACCCACACGGACACAGAGGGAAGGGGUUGGGAUGGGGACAGGGUGCACAGCAGGGCGGGGUAGGACCCCAGCCCCUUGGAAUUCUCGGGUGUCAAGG	0.497
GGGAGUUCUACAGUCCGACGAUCCACAGACAACACGCACCCACACAGACACAGAAAAAAGGGGUUGGGAUGGGGACAGGGUGCACAGCAGGGCGGGGUAGGACCCCAGCCCCUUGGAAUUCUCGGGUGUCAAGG	0.177
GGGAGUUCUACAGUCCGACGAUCUGGGAGGUGGGUUUUGUUUAUUUUUUUAGCUCAUUUCCAGGGGUGGGAAUUUUUUUUUAAUAUGUGUCAUGAAUAAAGUUGUUUUUGAAAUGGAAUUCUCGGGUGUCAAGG	-1.5
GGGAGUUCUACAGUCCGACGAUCUGGCCCUGGUGGCCUGCGGGGAGGAAGAGGUGGCCUCAUGGAUCGUGGUGGUCCCGGUGGAAUGUUCAGAGGUGGCCGUGGUGGAGACAGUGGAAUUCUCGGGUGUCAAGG	0.868
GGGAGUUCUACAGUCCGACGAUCCAAGUCCUGUGCUACACAUCGUAUGUACCGAAUCGGGGAAGGGGAAGGGGAAGGGAAAGUAUUAUGUUACGCCGUUCGGAUCUGCACUUCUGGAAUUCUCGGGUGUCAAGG	0.0615

Sample 2
Target: TAR DNA-binding protein 43, full length, His tag (TARDBP, Homo sapiens, UniProt Q13148, residues 1-414)
Method: RNA Bind-n-Seq
Molecule type: RNA
Medium: in vitro
Tested at: 20 nM
Setting: 6-mer, flanks averaged, single round
Together with: 150 mM KCl
Baseline: input library
Reading: higher = stronger binding
Strand	6-mer enrichment (R)
CUACAG	0.665
GAGCAA	0.93
UGACGC	0.812
AUGUAG	0.914
CCAUCC	0.593
AGAAAG	1.02
AUGUAC	0.664
CCGAGG	1.63

Single results of other studies
P1: PafA, mature enzyme, eGFP fusion (Elizabethkingia meningoseptica, UniProt Q9KJX5); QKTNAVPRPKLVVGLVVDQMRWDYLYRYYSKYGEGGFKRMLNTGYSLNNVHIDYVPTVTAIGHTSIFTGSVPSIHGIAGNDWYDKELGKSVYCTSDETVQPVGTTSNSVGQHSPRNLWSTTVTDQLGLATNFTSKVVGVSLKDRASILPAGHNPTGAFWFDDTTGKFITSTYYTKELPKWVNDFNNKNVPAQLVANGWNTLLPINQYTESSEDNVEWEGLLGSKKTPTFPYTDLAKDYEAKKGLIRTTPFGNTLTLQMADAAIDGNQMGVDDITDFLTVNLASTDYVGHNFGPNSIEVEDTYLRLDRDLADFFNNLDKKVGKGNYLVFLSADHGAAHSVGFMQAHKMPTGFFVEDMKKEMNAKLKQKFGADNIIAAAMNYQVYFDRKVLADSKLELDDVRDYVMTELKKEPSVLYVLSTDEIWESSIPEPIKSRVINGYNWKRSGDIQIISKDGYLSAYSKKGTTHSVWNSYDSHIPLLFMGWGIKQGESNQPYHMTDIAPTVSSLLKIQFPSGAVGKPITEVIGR
Molecule	target	test	system	setting	scale	quantity	result
LPIPKFLPIYQLKLE	OGT (Homo sapiens, UniProt O15294)	binding, phage display NGS	peptide	panning round 2	baseline: input library	minimum log2 enrichment ratio	2.74
P1 D124V	tungstate, free oxyanion	microfluidic competitive inhibition	in vitro, cell-free expressed	not given, derived from inhibition constants, unchanged parent 2230 nM	lower = stronger binding	oxyanion analog dissociation constant	1.25 µM
AAAVRKPIVLKR	human cyclin B2	peptide binding, yeast competitive growth sequencing	peptide, Saccharomyces cerevisiae, cyclin B2-Cln2 fusion	concentration not given, peptide tiling library	direction not given	binding enrichment score	-0.42
